{"data": "Measurements of several laboratories", "note": "Every numbered part comes from another study and shows a few of its results, in no order."}
{"data": "Study 1", "target": "Sal-like protein 4, full length isoform A (SALL4, Homo sapiens, UniProt Q9UJQ4, residues 1-1053)", "method": "universal PBM", "molecule type": "double-stranded DNA, one strand shown", "medium": "in vitro", "tested at": "600 nM", "setting": "8-mer, flanks averaged, mean of replicates", "reading": "higher = stronger binding", "sequence of UniProt Q9UJQ4 (whole entry, looked up)": "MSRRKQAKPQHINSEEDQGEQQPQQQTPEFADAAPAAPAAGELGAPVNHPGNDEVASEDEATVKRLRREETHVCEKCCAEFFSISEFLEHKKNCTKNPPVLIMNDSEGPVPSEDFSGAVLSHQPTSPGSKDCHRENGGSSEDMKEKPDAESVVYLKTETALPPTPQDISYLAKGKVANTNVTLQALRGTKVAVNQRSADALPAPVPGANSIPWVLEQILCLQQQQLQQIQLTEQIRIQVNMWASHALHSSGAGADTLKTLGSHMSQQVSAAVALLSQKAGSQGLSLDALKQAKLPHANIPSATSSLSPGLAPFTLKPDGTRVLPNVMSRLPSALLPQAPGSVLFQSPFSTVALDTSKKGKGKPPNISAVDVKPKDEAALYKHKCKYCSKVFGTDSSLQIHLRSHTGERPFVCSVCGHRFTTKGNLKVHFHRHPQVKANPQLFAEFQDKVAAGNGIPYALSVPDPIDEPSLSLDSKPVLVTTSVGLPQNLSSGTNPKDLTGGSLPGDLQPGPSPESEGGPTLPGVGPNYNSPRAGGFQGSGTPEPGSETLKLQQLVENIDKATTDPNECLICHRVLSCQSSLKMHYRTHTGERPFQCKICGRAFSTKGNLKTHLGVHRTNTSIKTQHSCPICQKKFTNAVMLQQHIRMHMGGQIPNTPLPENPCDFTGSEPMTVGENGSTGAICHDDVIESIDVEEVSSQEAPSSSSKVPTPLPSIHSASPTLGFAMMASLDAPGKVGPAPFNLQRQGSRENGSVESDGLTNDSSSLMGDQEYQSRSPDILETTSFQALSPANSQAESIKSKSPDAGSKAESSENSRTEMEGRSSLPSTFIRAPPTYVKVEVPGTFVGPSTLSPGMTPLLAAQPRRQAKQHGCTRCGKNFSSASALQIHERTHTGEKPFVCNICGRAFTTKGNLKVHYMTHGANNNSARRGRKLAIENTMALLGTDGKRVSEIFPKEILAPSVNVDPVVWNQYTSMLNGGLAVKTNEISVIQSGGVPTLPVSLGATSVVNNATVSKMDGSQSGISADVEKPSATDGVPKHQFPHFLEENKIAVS"}
{"Strand": "GCCTTAGC", "E-score": -0.139}
{"Strand": "GGACTACC", "E-score": -0.107}
{"Strand": "ACGATTTA", "E-score": 0.274}
{"Strand": "CGCAAATA", "E-score": 0.244}
{"Strand": "CGTGATGC", "E-score": -0.0833}
{"data": "Study 2", "target": "Interferon regulatory factor 7, full length, phosphomimetic (IRF7, Homo sapiens, UniProt Q92985, residues 1-503, S101K/S471D/S472D/S475D/S476D/S477D/S483D/S484D/S487D)", "method": "protein-binding microarray", "molecule type": "double-stranded DNA, one strand shown", "medium": "in vitro", "tested at": "250 nM", "setting": "60-bp whole probe", "added": "salmon DNA 0.4 mg/ml", "relative to": "random background probes", "reading": "higher = stronger binding", "constant ends, left off below": "GCCTAGCAC … GTCTTGATTCGCTTGACGCTGCTG", "sequence of UniProt Q92985 (whole entry, unmodified, looked up)": "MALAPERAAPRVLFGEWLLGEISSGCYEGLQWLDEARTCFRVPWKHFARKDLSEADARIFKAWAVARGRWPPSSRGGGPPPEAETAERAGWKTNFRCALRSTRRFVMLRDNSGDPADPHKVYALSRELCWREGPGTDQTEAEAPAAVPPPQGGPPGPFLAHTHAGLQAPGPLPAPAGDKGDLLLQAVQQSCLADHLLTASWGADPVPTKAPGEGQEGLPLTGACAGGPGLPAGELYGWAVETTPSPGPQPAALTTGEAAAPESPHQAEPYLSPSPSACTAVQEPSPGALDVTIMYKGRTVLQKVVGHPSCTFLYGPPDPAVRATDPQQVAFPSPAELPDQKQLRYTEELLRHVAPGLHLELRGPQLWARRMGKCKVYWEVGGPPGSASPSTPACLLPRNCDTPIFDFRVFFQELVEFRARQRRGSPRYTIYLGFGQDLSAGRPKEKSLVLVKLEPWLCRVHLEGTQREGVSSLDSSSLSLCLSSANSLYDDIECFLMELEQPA"}
{"Strand": "GCCGGACTGGGGTTTCGGGACGTGCTA", "log fluorescence [z-score]": 1}
{"Strand": "TTTAAGCTCCTATCTTATGATGTGCTA", "log fluorescence [z-score]": -0.0546}
{"Strand": "CTAGGTTTCCTTTCCCTTTAGTGCTAG", "log fluorescence [z-score]": 5.38}
{"Strand": "TCACCTTGAGGTTTTCTCACTGTGCTA", "log fluorescence [z-score]": -0.558}
{"Strand": "GACTGTATCGGGACTGGGGACGTGCTA", "log fluorescence [z-score]": -0.0316}
{"data": "Study 3", "target": "Fragile X messenger ribonucleoprotein 1, C-terminal low-complexity region (Fmr1, Mus musculus, UniProt P35922)", "method": "RNA Bind-n-Seq", "molecule type": "RNA", "medium": "in vitro", "tested at": "200 nM", "setting": "whole 134-nt RNA, ends assumed", "added": "150 mM KCl", "relative to": "input library", "reading": "higher = stronger binding"}
{"Strand": "GGGAGUUCUACAGUCCGACGAUCCUGUGCUACACAUCGUAUGUACCGAAUCGGGGCCCCCCCGGCCCCCCCGGGGCCCCCCCGGAAAGUAUUAUGUUACGCCGUUCGGAUCUGUGGAAUUCUCGGGUGUCAAGG", "log2 enrichment": -0.727}
{"Strand": "GGGAGUUCUACAGUCCGACGAUCCAAGUCCUGUGCUACACAUCGUAUGUACCGAAUCGGGUGGGAGGGUUUUUUUGGGAAAGUAUUAUGUUACGCCGUUCGGAUCUGCACUUCUGGAAUUCUCGGGUGUCAAGG", "log2 enrichment": 0.905}
{"Strand": "GGGAGUUCUACAGUCCGACGAUCAAGUCCUGUGCUACACAUCGUAUGUACCGAAUCGGGGUUUUGGUUUUGGGGUUUUGGAAAGUAUUAUGUUACGCCGUUCGGAUCUGCACUUGGAAUUCUCGGGUGUCAAGG", "log2 enrichment": -0.305}
{"data": "Other studies, line by line"}
{"Substance": "PhoQ, residues 284 288 289 292 302 303 TNSAEL", "target": "PhoP, residues 12 14 15 18 19 VHSCL (Escherichia coli, UniProt P23836)", "assay": "Sort-seq, refers to: YFP reporter", "system": "E. coli", "setting": "PhoQ-PhoP variant library, added: 10 µM Mg2+", "how to read": "relative to: high Mg2+ state, higher = stronger signaling", "quantity": "fold induction", "value": 0.951}
{"note": "A few entries again (study 1):"}
{"Strand": "CGTGATGC", "E-score": -0.0833}
